Measurements from different studies.
Every numbered part comes from another study and shows a few of its results, in no order.

Series 1
Target: RNA binding protein fox-1 homolog 2, RRM domain, GST-SBP tag (RBFOX2, Homo sapiens, UniProt O43251-10, residues 100-194)
Method: RNA Bind-n-Seq
Molecule type: RNA
Sample: in vitro
Tested at: 365 nM
Notes: natural RNA segment, single round, ends assumed
Baseline: no-protein control
Reading: higher = stronger binding
All sequences stand within: GGGAGUUCUACAGUCCGACGAUC … UGGAAUUCUCGGGUGCCAA
Construct (chain): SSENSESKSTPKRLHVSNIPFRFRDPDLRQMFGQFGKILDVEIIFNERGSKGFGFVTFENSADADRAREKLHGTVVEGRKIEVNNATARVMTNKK
| Sequence | RBNS enrichment (R) |
| --- | --- |
| UCCUCCUGUCCCCUAACCUCCACCUACCACCAUCCUCCCUCUCAGUUCUCUCCCAUCCUUGCCCCUGGUUCAGGAGCCAUUCUACCUGCCUCAGUGGCCAGGCGCAAGGC | 0.92 |
| GGACCAAGAGCAAGGCCCAGCUUCUGCUGGCCAAUCGUGUUCCUUCAGAUCACCCACAAUAAAGCGCAGCCCUUGCUGCAGCACCCGCUGCCAUCCUUGUCUCUGCUUCC | 0.231 |
| AUCUGAGGUCCCAGGAGGAGGCUCAGGAUUCCCUGGUGGGUCUGGAUGUCCCUUGGGUCAGAGGUCAUCCUUUCCCUCUCUCCUGUUAUCAGAGGCAAAGGAAGGUCUAC | 0.438 |
| AAUAUCUUUUCCUAAAGAAGAUAAACCUAAGACUCAUUCCAGGUAGCUCAGUGCCAACUAAAACAAAGCACAAAGUUCUCAGAGCUCUUGAGGAAAUGGUUGUCUCCCUG | 0.249 |
| GCUGUCACCGUCUCCUCUUAAGCUCACUCGGGCCAGGCCCUGAUCUGCGCUGUGGCUGUCCCUGGACGUGCUGCAGCCCUCCUGUCCCUUCCCCCCAGUCAGUAUUACCC | 0.316 |
| UGUUUAAAAUUAAAUUUGGGCACAGGAAGCACACAGAGACAUUUAGGUUGUUUAAAAAGUCAGAAUUUCUGAGUACCAUUUCAGUCUGGAGGCUUUUAGCUGAGUCCAGG | 0.518 |
| GUAGCAGCUUCAGCAUGGAAGAGGAGUCUGAUCAGGCCUCACUCCUCCCCCUGGAUGAGACCCUGCCUUUUUUCCCUACCCUCCUGUGAGACUGUCCUGUCCAGGAAAUC | 1.03 |
| AGCAAGAGAGUGCACCCGUUUAGCCCUGGACCCUGUUUCUUACUGUGUGACUUGGCUAGAGUUGGGAGUUCCCCCAAAAUAAACGUGUCCCCAUUUUACCAGAACCAAAC | 0.366 |
| UGGAGCGUGUGGGCCAUCCCAAGGAGCGAUGCUUCACCUUCUGAUGGCUGGACGCUGGCCAAGCCUGUGCCUGCUGCUCACGCACUCACCACAACCACCUGUCCACCCCU | 0.899 |

Series 2
Target: Phosphate system positive regulatory protein PHO4, full length, GST-tagged (PHO4, Saccharomyces cerevisiae, UniProt P07270, residues 1-312)
Method: competition protein-binding microarray
Molecule type: double-stranded DNA, one strand shown
Sample: in vitro
Tested at: 2 µM
Notes: whole 60-bp probe, lowest competitor level
With: Cbf1 competitor, 0.05 µM
Reading: higher = stronger binding
All sequences stand within: … GTCTTGATTCGCTTGACGCTGCTG
Construct (chain): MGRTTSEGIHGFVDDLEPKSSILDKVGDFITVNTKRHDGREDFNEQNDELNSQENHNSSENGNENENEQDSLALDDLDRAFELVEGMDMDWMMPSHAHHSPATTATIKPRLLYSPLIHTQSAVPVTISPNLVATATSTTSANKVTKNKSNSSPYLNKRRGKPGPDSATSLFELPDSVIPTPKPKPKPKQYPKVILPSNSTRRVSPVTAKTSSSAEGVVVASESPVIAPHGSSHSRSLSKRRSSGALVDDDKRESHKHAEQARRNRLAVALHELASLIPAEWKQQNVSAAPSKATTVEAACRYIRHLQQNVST
| Sequence | fluorescence intensity [a.u.] |
| --- | --- |
| ATTACATGGTGCTTGCTCGGGCTTTTTGGGATAAGA | 4520 |
| CATACCCAACCTTTTCACGTGTCCTAAGATATTTGT | 14500 |
| AAAAAACTACCCCATCACGTGAAATTTATTAGAAAA | 11300 |
| CGTCCTAGTGATTGCTGGGTGGGTGCCATGAGGAAG | 6550 |
| GTCTTGTCTCATTGTTCAGTGGGTGTCCCCACTTCA | 4880 |
| CGTCCTAGTGATTGGAACGTGGGTGCCATGAGGAAG | 14000 |
| TGATGTGAGTGCACTTAGTACTGATTTAGTGAGAGA | 4860 |
| CTAACGAAGGTTTGTCACAGAACTTACAAGCCAAGT | 2800 |
| GTCTTGTCTCATTGAGGCGTGGGTGTCCCCACTTCA | 7320 |
| TAGGTAGCAAATATTGGCGTGATTGCGGAGCCTTCC | 3670 |
| GGATCCCATCCAACACACGTGTTGAAATGACATCAG | 17700 |
| CGGGGTTAAGTTTGCATAGTGGGTGGCTTGCAGCAG | 5100 |
| TATGCCCATCCCAAGATCATGCCCGGGAGAGCAAAT | 4370 |
| CGGAAATGGCACCATCACCTGAAAAAGAAAGTAATC | 3690 |
| CGTCCTAGTGATTGTCGGGTGGGTGCCATGAGGAAG | 6320 |
| CTAACGAAGGTTTTTCACGTGCATTACAAGCCAAGT | 15000 |
| AAATTACTAAGTTGGCAGGTGGGTGACGCCGTATGA | 5940 |
| CTATCCAGCCACTCCCATGTGATAACGGTCGAAGTG | 9600 |
| TGGGAGGCACTGAAGTCCGTGCCGATTCCTCGACGC | 5180 |
| TGCGCAACAACTTGACAGGTGGGTGTATGTCTAGAA | 6310 |
| TTCTTTAATAAGTTGGTCGTGGGTACCTGCTGTTGC | 7300 |
| GTAATCCCAATTCACCACGTTCTTCCATGTTCAAGT | 16100 |
| CGGGGTTAAGTTTGCAGTGTGGGTGGCTTGCAGCAG | 6090 |

Series 3
Target: RING finger protein unkempt homolog, zinc fingers 1-6, GST-SBP tag (UNK, Homo sapiens, UniProt Q9C0B0, residues 30-357)
Method: RNA Bind-n-Seq
Molecule type: RNA
Sample: in vitro
Tested at: not given
Notes: RNA with constant flanks, human-mouse chimeric sites, ends assumed
Baseline: input RNA pool
Reading: higher = stronger binding
All sequences stand within: GGGAGUUCUACAGUCCGACGAUC … CAACAGAGGAUUGAGCAUCA
Construct (chain): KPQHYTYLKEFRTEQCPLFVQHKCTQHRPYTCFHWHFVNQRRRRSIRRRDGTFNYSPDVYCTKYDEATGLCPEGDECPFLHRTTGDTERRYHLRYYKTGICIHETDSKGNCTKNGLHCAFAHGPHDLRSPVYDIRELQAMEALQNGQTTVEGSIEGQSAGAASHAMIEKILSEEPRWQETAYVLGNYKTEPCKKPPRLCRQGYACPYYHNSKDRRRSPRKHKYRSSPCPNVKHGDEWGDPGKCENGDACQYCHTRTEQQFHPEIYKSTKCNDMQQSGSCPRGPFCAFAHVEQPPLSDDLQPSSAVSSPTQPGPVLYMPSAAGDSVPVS
| Sequence | bound/input enrichment [ratio] |
| --- | --- |
| CGCGUCCUCUCGCUGCUGCGGAGCCCGAGCUGGGAACCAUUCCGGGACUGGUACCCUCCGCAUAGCCGCCUCUUCGAUCAAGCUUUCGGGGUGCCCCGGUUGCCCGAUGAGUGGUCGCAG | 0.123 |
| AAAGUGAUAACCAUGUUUGUCCAACGACAGGUGUUUGCGGAGAGCAAAGAUGAGAUUGCGUUAGUCCUCUAUGGCACAGAUGGCACUGAUAAUGCCCUUGCUGGCAAGGACCAGUAUCAG | 0.135 |
| GCAGGAUCUUCUAAGUACCAGUGGGGCAUUAUGAAAUCCCUUGGGCUCUCUGAUGACGACAUAGUGAAGUUUUCUGAAGCAGAGCACUGGCUUGAUUAUUUCCCACCACUGGCUAUUCAG | 0.113 |
| CUUAAUGUUAAUAUUUUUAAAGGAAGCAAGCUAAAAUGUCUGCUUUUGGUACAACACGCAUUAAUAAAAGGUUAAGUUUUGUUUUCCACUGAAGUACUAUUUAACAUACAUCUCAGAAAC | 0.202 |
| GCAUAUGGUUAUCGAGGAAAGGACUGUAGAGCGAAUGUUUACCUUCUUCCCACAGGGGAGAUAGUUUAUUUUAUCGCCUCAGUGGUAGUCCUGUUUAAUUAUGAGGAGAGGACUCAGCGA | 0.272 |
| UUCAAAGAAAAGGGCAGCUGUGUCAUUUCAUAAGUAACUCUGGGGGAUAAGUGGAAGGUUCUUUUGUUUAAUUUUCCCCCAGAUAAAGCCAAAGUGUGUGUUGAAGAACUGAGAAAAAAU | 0.0825 |
| GGGACUGAUUCAUCCCAAGGACAGGCCACCCCAUUUGGUGUUUGGAAUGAUGACAGUAUGUUAGGGCCUAGUCAAAAUGUUGAAGCUGAGUCAAUUCAGGAUGCCAUGAGUAUGGAAGAG | 0.504 |
| GAUCCACAGUGGUCUGAGGAGCAACUCAUUGCUGCAAAAUUUUGCUUUGCUGGCCUUGUUAUAGGGCAGACUGAAGUGGACAUCAUGAGUCAUGCCACACAAGCUAUUUUUGAAAUUCUG | 0.168 |
| GAGCGUCUUGCCCGCACUGGGAUCAUCGUGACCACUAGUGAGGCUGUUCUGCUUCAGCUGGUAGCUGACAAAGACCACCCGAAGUUCAAGGAAAUUCAGAACCUAAUUAAGGCGAGUGCC | 0.128 |
| CUCAGAGAUGUGGCAUAUCAGUAUGUGAAAAAGGGGGCUCGAAUUUAUGUGGAAGGGAAAGUGGACUAUGGCGAGUACAUGGAUAAAAACAAUGUGAGGCGACAAGCAACAACAAUCAUA | 0.331 |
| CAGGGCAUUAUUUCUCGUGCUGUUAGACACCUGUUCAAGAGUAUUGAUGAGAAAAAGCACAUAGCAAUUAAAAACGGGCUGCCCCCUCCUGAAUUCAAAGUGAAUGCCCAGUUCCUAGAG | 1.07 |

Series 4
Target: Histone acetyltransferase KAT6A, winged helix 1, GST fusion (KAT6A, Homo sapiens, UniProt Q92794, residues 1-85)
Method: protein binding microarray
Molecule type: double-stranded DNA, one strand shown
Sample: in vitro
Tested at: not given
Notes: 8-mer, flanks averaged, mean of 2 arrays, mostly near background
Baseline: not given
Reading: higher = stronger binding
Residues (chain): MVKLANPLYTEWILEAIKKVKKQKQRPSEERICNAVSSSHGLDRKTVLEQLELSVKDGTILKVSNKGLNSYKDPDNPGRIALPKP
| Sequence | E-score |
| --- | --- |
| AATAGAAG | -0.148 |
| AGGGTCGA | -0.00759 |
| AGGAACGA | -0.0728 |
| CACTCTGA | -0.0641 |
| CCGTCCGA | 0.353 |
| CCTACTCA | -0.172 |
| GCAAGGAC | 0.117 |
| GGCGTGCA | 0.0958 |
| CACACGGA | 0.276 |
| AATACACA | -0.0896 |
| ACCTCGTC | -0.0308 |
| AGTATGAT | -0.141 |
| ATGTTTCC | 0.141 |
| AATTCTTG | -0.0877 |
| GTTTCTGA | -0.0573 |
| AGCGTTGG | -0.104 |
| AGAGACCC | 0.0597 |

For quick reference, copied from above (series 4):
| Sequence | E-score |
| --- | --- |
| AATAGAAG | -0.148 |
| AGGGTCGA | -0.00759 |
| AGGAACGA | -0.0728 |
| CACTCTGA | -0.0641 |
| CCGTCCGA | 0.353 |
| CCTACTCA | -0.172 |
| GCAAGGAC | 0.117 |
